Experimental data gathered from unrelated publications.
Every numbered part comes from another study and shows a few of its results, in no order.

Block 1 — method: universal PBM; molecule type: double-stranded DNA, one strand shown; sample: in vitro; tested at: not given; direction: higher = stronger binding; quantity: E-score
Target: Sal-like protein 4, full length isoform B (SALL4, Homo sapiens, UniProt Q9UJQ4-2, residues 1-616)
Notes: 8-mer, flanks averaged, mean of replicates
Sequence = CATCCTTC; value = 0.0421
Sequence = ACCTGAAT; value = 0.219
Sequence = GCTAAATA; value = 0.257
Sequence = CCTCTACC; value = -0.217
Sequence = CCACCTCG; value = -0.244
Sequence = ATACAACG; value = 0.137
Sequence = GGTCCTGA; value = -0.331
Sequence = AAGTCCGC; value = -0.213
Sequence = ACTCAACC; value = 0.116
Sequence = CAAGATCG; value = 0.0363

Block 2 — method: RNA Bind-n-Seq; molecule type: RNA; sample: in vitro; tested at: 200 nM; notes: whole 134-nt RNA, ends assumed; with: 150 mM KCl; baseline: input library; direction: higher = stronger binding; quantity: log2 enrichment
Target: Fragile X messenger ribonucleoprotein 1, C-terminal low-complexity region (Fmr1, Mus musculus, UniProt P35922)
Sequence = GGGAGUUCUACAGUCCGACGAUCCCUCAAGUCCUGUGCUACACAUCGUAUGUACCGAAUCGGUUGGGUUGGGUUGGAAAGUAUUAUGUUACGCCGUUCGGAUCUGCACUUCCAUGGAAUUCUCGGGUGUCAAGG; value = 0.00911
Sequence = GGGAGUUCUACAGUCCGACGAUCCAAGUCCUGUGCUACACAUCGUAUGUACCGAAUCGGGGUUUGGGUUUGGGUUUGGGAAAGUAUUAUGUUACGCCGUUCGGAUCUGCACUUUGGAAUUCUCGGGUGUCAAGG; value = 1.14
Sequence = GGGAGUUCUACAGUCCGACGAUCUGGGAGGUGGAUUUUGUUUAUUUUUUUAGCUCAUUUCCAGGGGUGGGAAUUUUUCUUUAAUAUGUGUCAUGAAUAAAGUUGUUUUUGAAAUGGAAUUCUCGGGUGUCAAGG; value = 0.315
Sequence = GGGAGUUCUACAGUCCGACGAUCUUUAAACUGAAGCCGCGGCCGAAAACGCCAAGAGAUUGAUGCUGUAGCUGCCCUGAGAUAACCAGGACUGUGGAAUCGGGAAGAGCUCAUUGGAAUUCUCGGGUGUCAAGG; value = -0.817
Sequence = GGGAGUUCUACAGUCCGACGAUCUGGGAGGUGGAUUUUGUUUAUUUUUUUAGCUCAUUUCCAGGGGUGGGAAUUUUUUUUUAAUAUGUGUCAUUAAUAAAGUUGUUUUUGAAAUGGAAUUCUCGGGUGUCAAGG; value = 0.301
Sequence = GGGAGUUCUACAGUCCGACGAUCAAGUCCUGUGCUACACAUCGUAUGUACCGAAUCGGGUGGGUUUGGGAAAAAAAGGGAAAGUAUUAUGUUACGCCGUUCGGAUCUGCACUUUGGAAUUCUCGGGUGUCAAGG; value = 0.439
Sequence = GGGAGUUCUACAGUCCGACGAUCAGAGAAUAAGAAUUCAGCUGACAGGAGGCCUCUAUCCUGUCCCUCCACCCCACCCUCCACCUCAAUCCCCUCCCAUCUUCCCCAGACCUAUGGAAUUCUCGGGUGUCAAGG; value = 0.592
Sequence = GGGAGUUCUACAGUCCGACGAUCGUCCUGUGCUACACAUCGUAUGUACCGAAUCGGGGUUUUUGGGGAAAAAGGGGUGGGGAAAGUAUUAUGUUACGCCGUUCGGAUCUGCACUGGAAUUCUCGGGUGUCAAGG; value = 0.644
Sequence = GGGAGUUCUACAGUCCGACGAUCUUAGGGAUGUGGCCAUAGAAUUCUCUCAGGAGGAGUGGAAAUGCCUGGACCCUGCUCAGAGGAUCUUAUACAGGGACGUGAUGUUGGAGAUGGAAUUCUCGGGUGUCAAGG; value = 0.599

Block 3 — method: protein-binding microarray; molecule type: double-stranded DNA, one strand shown; sample: in vitro; tested at: 250 nM; notes: 60-bp whole probe; with: salmon DNA 0.4 mg/ml; baseline: random background probes; direction: higher = stronger binding; quantity: log fluorescence; all sequences stand within: GCCTAGCAC … GTCTTGATTCGCTTGACGCTGCTG
Target: Interferon regulatory factor 7, full length, phosphomimetic (IRF7, Homo sapiens, UniProt Q92985, residues 1-503, S101K/S471D/S472D/S475D/S476D/S477D/S483D/S484D/S487D)
Chain of UniProt Q92985 (whole entry, unmodified, looked up): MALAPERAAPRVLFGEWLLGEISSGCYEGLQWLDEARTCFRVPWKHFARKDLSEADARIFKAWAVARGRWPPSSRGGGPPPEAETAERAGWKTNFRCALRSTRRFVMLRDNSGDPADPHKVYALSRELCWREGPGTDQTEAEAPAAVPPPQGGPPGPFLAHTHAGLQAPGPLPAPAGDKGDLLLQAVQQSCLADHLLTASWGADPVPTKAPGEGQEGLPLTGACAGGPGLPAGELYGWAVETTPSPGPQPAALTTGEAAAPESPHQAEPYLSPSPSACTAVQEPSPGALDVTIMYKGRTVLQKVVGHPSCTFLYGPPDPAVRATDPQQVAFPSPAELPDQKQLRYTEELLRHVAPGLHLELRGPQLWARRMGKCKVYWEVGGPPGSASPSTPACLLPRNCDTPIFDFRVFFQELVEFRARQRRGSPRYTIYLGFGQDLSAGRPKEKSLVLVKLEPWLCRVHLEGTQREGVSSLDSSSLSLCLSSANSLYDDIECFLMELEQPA
Sequence = AACGGACTGGGTATCGGGACGTGCTAG; value = -0.246 z-score
Sequence = TTAGAGCTGAGTCTCGATTAGTGCTAG; value = 0.464 z-score
Sequence = GACGGTTCCGACTATCGGGACGTGCTA; value = 0.378 z-score
Sequence = TTAGGACTGGACGTTCGGTTAGTGCTA; value = -0.0246 z-score
Sequence = ATAAAAGAACTCCTGGGGGAGTGCTAG; value = 0.0372 z-score
Sequence = TGAACTTCGGCCTCTAGGTTTGTGCTA; value = -0.598 z-score
Sequence = AACGGTTTCCTACTGCTGACGTGCTAG; value = 1.86 z-score
Sequence = GACGGACTGCTACTGCTGATGTGCTAG; value = -0.756 z-score
Sequence = TTAGGTATCGGGACCGGGTTAGTGCTA; value = 0.382 z-score
Sequence = GACGGTATCCTTTTTCTGACGTGCTAG; value = 0.35 z-score

Mixed results
Substance = PhoQ, residues 284 288 289 292 302 303 SLSVQF; target = PhoP, residues 12 14 15 18 19 TQALL (Escherichia coli, UniProt P23836); test = Sort-seq, item: YFP reporter; test system = E. coli; setting = PhoQ-PhoP variant library, with: 10 µM Mg2+; how to read = baseline: high Mg2+ state, higher = stronger signaling; quantity = fold induction; value = 12.9

Excerpt of the above (block 1):
Sequence = CCTCTACC; value = -0.217
Sequence = ATACAACG; value = 0.137
Sequence = CATCCTTC; value = 0.0421
Sequence = CAAGATCG; value = 0.0363
